Experimental data gathered from unrelated publications.
Each numbered part is a random draw from the data of one study; scales do not carry over between parts.

Sample 1 — method: aptamer microarray, sandwich; molecule type: DNA with 2'F-ANA; matrix: in vitro; tested at: 200 nM; with: Cy3 exosite-II aptamer, 400 nM; direction: higher = stronger binding; oligonucleotide: GGTTGGTGTGGTTGG
Target: Prothrombin, mature alpha-thrombin (F2, Homo sapiens, UniProt P00734)
Notes: whole 15-mer aptamer, many near background
`2'F-ANA at 1 2 3 4 6 8 9 10 11 14 15` — result for “mean fluorescence intensity”: 52.7 a.u.
`2'F-ANA at 2 4 5 6 8 11 15`: “mean fluorescence intensity” 59.8 a.u.
For `2'F-ANA at 2 3 5 6 10 13 14 15`, “mean fluorescence intensity” read 48.4 a.u.
`2'F-ANA at 2 3 5 7 8 9 10 14`: “mean fluorescence intensity” 50.5 a.u.
For `2'F-ANA at 2 4 9 10 12 13 15`, “mean fluorescence intensity” read 99.1 a.u.
Under “mean fluorescence intensity”, `2'F-ANA at 2 4 8 12` is recorded as 744 a.u.

Sample 2 — target: Sox, HMG box (Pigoraptor chileana); method: Spec-seq; molecule type: double-stranded DNA, one strand shown; matrix: in vitro; tested at: not given; notes: whole probe, mean of replicates; baseline: not given; direction: lower = stronger binding; shared flanks, not repeated: GAGTCGTCTCGTCAGCAC … CCGTAGAGCACTCAGGTC
Target sequence (chain): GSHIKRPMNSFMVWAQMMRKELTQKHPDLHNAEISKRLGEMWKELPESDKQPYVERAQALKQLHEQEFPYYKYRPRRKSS
`CATTGTG`: “relative binding energy” -2.32 ln ratio.
For `CATGCAC`, “relative binding energy” read 0.463 ln ratio.
For `AGGCGTT`, “relative binding energy” read 0.633 ln ratio.
`GGTTGTT`: “relative binding energy” -0.87 ln ratio.
For `CCCCGTT`, “relative binding energy” read 0.772 ln ratio.
`CATGGAG`: “relative binding energy” 0.526 ln ratio.

Sample 3 — method: protein-binding microarray; molecule type: double-stranded DNA, one strand shown; matrix: in vitro; tested at: 2200 nM top; notes: 60-bp whole probe; with: salmon DNA 0.4 mg/ml; baseline: random background probes; direction: higher = stronger binding
Target: Interferon regulatory factor 7, full length, phosphomimetic (IRF7, Homo sapiens, UniProt Q92985, residues 1-503, S471D/S472D/S475D/S476D/S477D/S483D/S484D/S487D)
UniProt Q92985, sequence (whole entry, unmodified, looked up): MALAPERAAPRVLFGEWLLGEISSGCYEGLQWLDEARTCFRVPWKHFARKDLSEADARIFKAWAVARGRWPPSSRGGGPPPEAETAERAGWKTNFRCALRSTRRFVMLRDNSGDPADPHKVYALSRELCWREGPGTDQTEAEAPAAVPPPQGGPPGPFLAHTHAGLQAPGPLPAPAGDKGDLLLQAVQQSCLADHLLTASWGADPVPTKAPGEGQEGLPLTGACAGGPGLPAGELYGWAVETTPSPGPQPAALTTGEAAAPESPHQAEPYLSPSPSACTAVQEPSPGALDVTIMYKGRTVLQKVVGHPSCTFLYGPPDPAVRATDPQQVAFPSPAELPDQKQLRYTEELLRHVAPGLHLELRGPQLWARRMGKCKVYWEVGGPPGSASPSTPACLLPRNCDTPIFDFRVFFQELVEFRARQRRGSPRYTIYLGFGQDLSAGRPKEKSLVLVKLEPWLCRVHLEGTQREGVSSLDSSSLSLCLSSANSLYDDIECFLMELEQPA
Under “fitted relative affinity”, `GCCTAGCACTCACTTTTATTTTTTTTACTGTGCTAGGTCTTGATTCGCTTGACGCTGCTG` is recorded as 2.12 z-score.
`GCCTAGCACGACGGTCTCGGTCTCGAGACGTGCTAGGTCTTGATTCGCTTGACGCTGCTG` — result for “fitted relative affinity”: -0.363 z-score.
`GCCTAGCACGACGGTATCCTACGGCTGACGTGCTAGGTCTTGATTCGCTTGACGCTGCTG` — result for “fitted relative affinity”: 0.16 z-score.
`GCCTAGCACGACGGTATCAGACTGGGGACGTGCTAGGTCTTGATTCGCTTGACGCTGCTG` — result for “fitted relative affinity”: -0.309 z-score.

Other studies, line by line
With `PhoQ, residues 284 288 289 292 302 303 SLSLLA` the fold induction was 24 (PhoP, residues 12 14 15 18 19 AGCRL (Escherichia coli, UniProt P23836); Sort-seq, measured: YFP reporter; E. coli; PhoQ-PhoP variant library, with: 10 µM Mg2+; baseline: high Mg2+ state, higher = stronger signaling).

Excerpt of the above (sample 3):
`GCCTAGCACGACGGTATCCTACGGCTGACGTGCTAGGTCTTGATTCGCTTGACGCTGCTG` — result for “fitted relative affinity”: 0.16 z-score.
